Experimental data collected from several papers.
Every numbered part comes from another study and shows a few of its results, in no order. Positions count from the first letter of the parent shown.

Sample 1
Target: Histone acetyltransferase KAT6A, winged helix 1, GST fusion (KAT6A, Homo sapiens, UniProt Q92794, residues 1-85)
Technique: protein binding microarray
Molecule type: double-stranded DNA, one strand shown
Sample: in vitro
Concentration: not given
Notes: 8-mer, flanks averaged, mean of 2 arrays, mostly near background
Reference: not given
Reading: higher = stronger binding
Endpoint: E-score
Target sequence (chain): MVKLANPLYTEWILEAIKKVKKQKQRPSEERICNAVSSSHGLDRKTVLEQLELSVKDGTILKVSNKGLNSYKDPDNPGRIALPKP
TAAGGATA: -0.0973
GAATACTA: -0.0943
GTCGCTCA: 0.0943
GGTTGAAC: 0.0278
CCGTGTTA: 0.308
GAAATTTC: -0.0961
CAGATATA: -0.165
CGCCAAGA: 0.0691
GAGAAAGC: 0.109
AACGTGAT: 0.0145
ATAGGTAA: -0.159
TTGCCCAA: -0.0982
CACAGTGG: -0.119
ACCTTGGG: -0.0667
GTCTCAAC: -0.11
CGGGTAAA: 0.0893
TGAGCTAA: -0.0803

Sample 2
Target: Sal-like protein 4, full length isoform A (SALL4, Homo sapiens, UniProt Q9UJQ4, residues 1-1053)
Chain of UniProt Q9UJQ4 (whole entry, looked up): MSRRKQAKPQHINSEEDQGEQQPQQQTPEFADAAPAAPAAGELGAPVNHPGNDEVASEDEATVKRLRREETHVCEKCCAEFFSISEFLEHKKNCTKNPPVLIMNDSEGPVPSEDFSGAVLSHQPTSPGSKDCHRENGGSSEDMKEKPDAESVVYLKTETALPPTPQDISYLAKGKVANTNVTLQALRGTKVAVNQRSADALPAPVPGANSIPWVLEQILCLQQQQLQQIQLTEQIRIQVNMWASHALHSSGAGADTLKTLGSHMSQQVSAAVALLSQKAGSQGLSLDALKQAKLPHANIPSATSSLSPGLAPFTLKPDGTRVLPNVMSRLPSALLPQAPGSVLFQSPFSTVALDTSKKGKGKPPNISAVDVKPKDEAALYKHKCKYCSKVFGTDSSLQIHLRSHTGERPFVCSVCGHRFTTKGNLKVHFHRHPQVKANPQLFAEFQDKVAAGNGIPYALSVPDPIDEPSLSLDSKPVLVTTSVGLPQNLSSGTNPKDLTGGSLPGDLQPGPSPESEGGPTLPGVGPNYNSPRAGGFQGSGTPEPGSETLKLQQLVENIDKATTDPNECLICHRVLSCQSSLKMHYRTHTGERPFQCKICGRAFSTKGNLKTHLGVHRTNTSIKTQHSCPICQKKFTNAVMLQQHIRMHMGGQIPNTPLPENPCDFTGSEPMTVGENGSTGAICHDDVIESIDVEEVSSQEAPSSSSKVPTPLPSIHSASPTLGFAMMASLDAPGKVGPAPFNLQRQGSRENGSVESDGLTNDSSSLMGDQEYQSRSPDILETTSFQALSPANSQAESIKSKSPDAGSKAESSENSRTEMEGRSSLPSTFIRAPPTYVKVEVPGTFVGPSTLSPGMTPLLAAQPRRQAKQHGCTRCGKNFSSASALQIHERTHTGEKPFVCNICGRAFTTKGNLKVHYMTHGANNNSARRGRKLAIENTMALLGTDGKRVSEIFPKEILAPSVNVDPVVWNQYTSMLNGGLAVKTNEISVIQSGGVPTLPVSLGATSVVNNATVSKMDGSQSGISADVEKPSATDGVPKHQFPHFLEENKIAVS
Technique: universal PBM
Molecule type: double-stranded DNA, one strand shown
Sample: in vitro
Concentration: 600 nM
Notes: 8-mer, flanks averaged, mean of replicates
Reading: higher = stronger binding
Endpoint: E-score
CATGCGGA: -0.244
AGATTTCC: -0.101
AGACTGCT: -0.0349
ACGATCGG: -0.029
GAATTAGA: 0.192
CATAAGCA: 0.197
GAACGATC: -0.175
ACTTTCGA: 0.0989
GAGTCATA: 0.233
ACCAGTAT: -0.0163
CCTGACGA: -0.0253
CATTTAGC: -0.0013
AACGCGGG: -0.223
CCAACTAG: 0.0621
GTTGCGGA: -0.142
CGACGCCA: -0.25
AAACTAAA: 0.226
ATTAAGGA: 0.188
AGCGGGGA: -0.0623
ACGCTTCA: -0.0262
ACATGGCC: -0.00783

Sample 3
Target: CEP164, C-terminal peptide (human)
Technique: DHFR complementation, deep sequencing
Sample: yeast
Notes: single substitutions, model-inferred values
Reference: wild type
Reading: higher = weaker binding
Endpoint: binding free energy change
Starting sequence: PDZK1, PDZ domain 2 (human); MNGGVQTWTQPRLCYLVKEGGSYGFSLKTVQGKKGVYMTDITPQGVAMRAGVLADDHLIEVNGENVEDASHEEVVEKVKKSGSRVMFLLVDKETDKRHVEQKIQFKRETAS; partner HNRVKVYRF
V52I: 0.315 kcal/mol
Y37Q: 0.31 kcal/mol
V66W: 0.651 kcal/mol
E67N: 0.479 kcal/mol
E72F: 0.779 kcal/mol
P11R: 0.429 kcal/mol
V99E: -0.22 kcal/mol
P11H: 0.212 kcal/mol
K106R: -0.156 kcal/mol
A47F: 1.62 kcal/mol
D55C: 0.549 kcal/mol
V17A: 0.00645 kcal/mol
M48K: 0.115 kcal/mol
Q6P: -0.212 kcal/mol
I103F: -0.099 kcal/mol
G51E: 1.53 kcal/mol
T7V: -0.0297 kcal/mol
T9F: 0.0701 kcal/mol
H98N: -0.0585 kcal/mol
K102H: 0.037 kcal/mol
E73N: 0.0904 kcal/mol
D91P: -0.285 kcal/mol
Q6M: -0.0241 kcal/mol

Sample 4
Target: Prothrombin, mature alpha-thrombin (F2, Homo sapiens, UniProt P00734)
Technique: aptamer microarray, sandwich
Molecule type: DNA with 2'F-ANA
Sample: in vitro
Concentration: 200 nM
Notes: whole 15-mer aptamer, many near background
With: Cy3 exosite-II aptamer, 400 nM
Reading: higher = stronger binding
Endpoint: mean fluorescence intensity
Sequence: GGTTGGTGTGGTTGG
2'F-ANA at 1 2 4 5 6 10 11 12 13 14: 50.7 a.u.
2'F-ANA at 2 4 5 6 9 10 12 13 15: 101 a.u.
2'F-ANA at 1 5 7 8 10 11 12 14: 287 a.u.
2'F-ANA at 1 6 10 15: 88.8 a.u.
2'F-ANA at 3 5 6 8 10 11 15: 52.9 a.u.
2'F-ANA at 3 4 6 7 10 11: 268 a.u.
2'F-ANA at 1 2 5 7 8 11 13 15: 49.6 a.u.
2'F-ANA at 1 5 6 7 11 15: 63.2 a.u.
2'F-ANA at 2 5 6 8 11 12 14 15: 415 a.u.
2'F-ANA at 7 10 12 14 15: 126 a.u.
2'F-ANA at 1 2 5 6 8 10 12 14 15: 54 a.u.
2'F-ANA at 1 2 4 8 11 12 14: 61.1 a.u.
2'F-ANA at 1 4 5 13: 64 a.u.
2'F-ANA at 2 3 5 7 13 14: 58.5 a.u.
2'F-ANA at 6 7 8 11 14: 204 a.u.
2'F-ANA at 1 2 4 6 7 10 12 13: 49.7 a.u.
2'F-ANA at 1 2 3 4 8 9 10 11 12 13: 86.3 a.u.
2'F-ANA at 3 4 5 6 7 8 14: 76.3 a.u.
2'F-ANA at 1 2 3 5 6 7 9 15: 56.9 a.u.
2'F-ANA at 1 2 3 4 5 7 8 9 10 11 12: 54.9 a.u.
2'F-ANA at 1 2 5 6 7 10 11 13 14: 54.8 a.u.
2'F-ANA at 2 3 5 6 10 11 13 14: 47.1 a.u.
2'F-ANA at 2 3 8 9 11 12 14: 457 a.u.
2'F-ANA at 1 3 7 10 12 13 14: 61.2 a.u.
2'F-ANA at 2 5 6 8 12 13 14 15: 47.2 a.u.

Sample 5
Target: Interferon regulatory factor 7, full length, phosphomimetic (IRF7, Homo sapiens, UniProt Q92985, residues 1-503, S471D/S472D/S475D/S476D/S477D/S483D/S484D/S487D)
Chain of UniProt Q92985 (whole entry, unmodified, looked up): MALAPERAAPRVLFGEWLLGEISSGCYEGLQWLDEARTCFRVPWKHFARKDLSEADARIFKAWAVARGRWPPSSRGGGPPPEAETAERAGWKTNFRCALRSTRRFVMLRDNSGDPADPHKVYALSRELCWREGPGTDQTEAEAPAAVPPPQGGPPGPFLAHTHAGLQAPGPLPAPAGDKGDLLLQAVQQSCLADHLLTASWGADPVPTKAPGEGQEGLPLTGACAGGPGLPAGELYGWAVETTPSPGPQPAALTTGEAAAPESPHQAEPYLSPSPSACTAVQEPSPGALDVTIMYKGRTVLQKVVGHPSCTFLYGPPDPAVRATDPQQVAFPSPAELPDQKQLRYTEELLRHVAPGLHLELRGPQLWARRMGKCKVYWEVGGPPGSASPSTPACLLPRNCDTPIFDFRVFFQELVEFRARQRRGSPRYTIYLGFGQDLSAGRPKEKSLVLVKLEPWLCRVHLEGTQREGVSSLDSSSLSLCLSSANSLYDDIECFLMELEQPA
Technique: protein-binding microarray
Molecule type: double-stranded DNA, one strand shown
Sample: in vitro
Concentration: 2200 nM top
Notes: 60-bp whole probe
With: salmon DNA 0.4 mg/ml
Reference: random background probes
Reading: higher = stronger binding
Endpoint: fitted relative affinity
All sequences stand within: GCCTAGCAC … GTCTTGATTCGCTTGACGCTGCTG
TTATGTATCGACACTGGGTTAGTGCTA: 0.623 z-score
CCTACCGCCCTTACCGCCGCGTGCTAG: -0.0142 z-score
TCATGTTGTTTTTTGGTACTGTGCTAG: 2.11 z-score
TTAGGTTTCCGTATCCTTTAGTGCTAG: 3.11 z-score
TCACCTTAGGTTTTCTGACTGTGCTAG: 1.17 z-score
TTAGGACTGGACTTTCGGATAGTGCTA: 1.49 z-score
TCACCTTGGCCTCTAGGACTGTGCTAG: 0.0808 z-score
TTCTTTTTTTTCTTTAAAAGGTGCTAG: 2.13 z-score
CGCCCTCTCAACCATCCTGGGGTGCTA: 0.121 z-score
TCAAGAGTAGTTTTTCAAACTGTGCTA: -0.9 z-score
TAAGGTATAAACTTGGGAAAGTGCTAG: -0.906 z-score
GTCGAACTGAGACTGGAGACGTGCTAG: 0.023 z-score
TTTGGACTGGACTTTCGGTTAGTGCTA: 5.41 z-score
TTCATTTACATTTCCAATACGTGCTAG: 2.42 z-score
GAGGGTTTCCTTTTCCTGACGTGCTAG: 3.07 z-score
TCACCCCTCTCTTTCCAACTGTGCTAG: 2.09 z-score

Excerpt of the above (sample 5):
TCACCTTGGCCTCTAGGACTGTGCTAG: 0.0808 z-score
TCACCCCTCTCTTTCCAACTGTGCTAG: 2.09 z-score
TCATGTTGTTTTTTGGTACTGTGCTAG: 2.11 z-score
TTATGTATCGACACTGGGTTAGTGCTA: 0.623 z-score
TTTGGACTGGACTTTCGGTTAGTGCTA: 5.41 z-score
TAAGGTATAAACTTGGGAAAGTGCTAG: -0.906 z-score
TTCATTTACATTTCCAATACGTGCTAG: 2.42 z-score
